Assay results from different studies.
Each line is one published result; not all experiments were run side by side. ± gives the spread as reported.
blaNDM-1: Metallo-beta-lactamase type 2 (blaNDM-1, Klebsiella pneumoniae, UniProt C7C422)
Chain of UniProt C7C422 (whole entry, looked up): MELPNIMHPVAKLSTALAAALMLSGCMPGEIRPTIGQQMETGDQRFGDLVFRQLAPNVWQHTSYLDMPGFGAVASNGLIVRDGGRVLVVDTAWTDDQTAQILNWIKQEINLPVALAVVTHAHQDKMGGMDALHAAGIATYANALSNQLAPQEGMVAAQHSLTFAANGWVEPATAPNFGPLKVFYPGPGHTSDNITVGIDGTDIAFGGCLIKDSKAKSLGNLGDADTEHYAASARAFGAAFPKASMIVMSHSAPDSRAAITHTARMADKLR
SIRT5: NAD-dependent protein deacylase sirtuin-5, mitochondrial (SIRT5, Homo sapiens, UniProt Q9NXA8)
Chain of UniProt Q9NXA8 (whole entry, looked up): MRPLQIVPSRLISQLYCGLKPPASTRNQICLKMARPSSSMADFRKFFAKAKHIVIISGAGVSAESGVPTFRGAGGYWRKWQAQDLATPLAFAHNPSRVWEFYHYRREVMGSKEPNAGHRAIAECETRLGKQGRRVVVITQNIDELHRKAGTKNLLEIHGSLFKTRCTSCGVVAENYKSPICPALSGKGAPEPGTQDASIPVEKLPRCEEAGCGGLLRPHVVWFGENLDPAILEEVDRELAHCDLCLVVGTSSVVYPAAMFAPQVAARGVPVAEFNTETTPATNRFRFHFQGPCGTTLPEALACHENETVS
lasR: Transcriptional activator protein LasR (lasR, Pseudomonas aeruginosa, UniProt P25084)
Chain of UniProt P25084 (whole entry, looked up): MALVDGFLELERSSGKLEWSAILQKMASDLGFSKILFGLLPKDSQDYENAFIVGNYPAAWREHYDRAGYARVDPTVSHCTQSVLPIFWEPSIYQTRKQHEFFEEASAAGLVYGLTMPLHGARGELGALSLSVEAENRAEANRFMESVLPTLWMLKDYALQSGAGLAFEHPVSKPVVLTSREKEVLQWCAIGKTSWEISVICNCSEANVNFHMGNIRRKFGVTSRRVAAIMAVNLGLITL
Formate-nitrite transporter: Formate-nitrite transporter (Plasmodium falciparum, UniProt O77389)
Chain of UniProt O77389 (whole entry, looked up): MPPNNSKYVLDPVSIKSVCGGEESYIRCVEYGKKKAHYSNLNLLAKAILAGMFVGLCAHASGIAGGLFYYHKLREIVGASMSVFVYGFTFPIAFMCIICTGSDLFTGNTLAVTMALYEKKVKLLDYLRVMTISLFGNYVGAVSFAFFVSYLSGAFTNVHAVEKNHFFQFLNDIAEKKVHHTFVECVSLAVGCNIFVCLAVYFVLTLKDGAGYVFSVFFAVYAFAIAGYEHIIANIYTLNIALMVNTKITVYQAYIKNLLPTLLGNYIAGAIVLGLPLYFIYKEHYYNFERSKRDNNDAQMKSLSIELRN
Chain of UniProt Q99436 (whole entry, looked up): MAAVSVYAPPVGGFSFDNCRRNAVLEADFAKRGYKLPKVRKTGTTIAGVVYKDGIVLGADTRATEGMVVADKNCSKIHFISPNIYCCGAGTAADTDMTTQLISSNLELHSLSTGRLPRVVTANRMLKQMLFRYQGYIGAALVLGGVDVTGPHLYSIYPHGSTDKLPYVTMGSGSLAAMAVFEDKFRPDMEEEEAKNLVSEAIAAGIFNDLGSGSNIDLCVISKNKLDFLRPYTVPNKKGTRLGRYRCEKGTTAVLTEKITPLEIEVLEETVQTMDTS
Chain of UniProt Q9Y3R4 (whole entry, looked up): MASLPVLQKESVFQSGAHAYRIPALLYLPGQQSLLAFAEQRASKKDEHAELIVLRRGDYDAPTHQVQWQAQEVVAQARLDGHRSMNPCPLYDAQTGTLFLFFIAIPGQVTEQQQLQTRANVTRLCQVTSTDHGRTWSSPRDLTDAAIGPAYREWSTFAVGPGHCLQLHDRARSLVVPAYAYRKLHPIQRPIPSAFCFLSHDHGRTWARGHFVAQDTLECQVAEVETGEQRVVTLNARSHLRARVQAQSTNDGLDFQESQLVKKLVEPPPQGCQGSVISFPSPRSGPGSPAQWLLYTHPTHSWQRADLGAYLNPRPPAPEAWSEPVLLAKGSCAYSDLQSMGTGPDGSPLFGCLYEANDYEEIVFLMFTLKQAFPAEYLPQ
Chain of UniProt Q8BZ39 (whole entry, looked up): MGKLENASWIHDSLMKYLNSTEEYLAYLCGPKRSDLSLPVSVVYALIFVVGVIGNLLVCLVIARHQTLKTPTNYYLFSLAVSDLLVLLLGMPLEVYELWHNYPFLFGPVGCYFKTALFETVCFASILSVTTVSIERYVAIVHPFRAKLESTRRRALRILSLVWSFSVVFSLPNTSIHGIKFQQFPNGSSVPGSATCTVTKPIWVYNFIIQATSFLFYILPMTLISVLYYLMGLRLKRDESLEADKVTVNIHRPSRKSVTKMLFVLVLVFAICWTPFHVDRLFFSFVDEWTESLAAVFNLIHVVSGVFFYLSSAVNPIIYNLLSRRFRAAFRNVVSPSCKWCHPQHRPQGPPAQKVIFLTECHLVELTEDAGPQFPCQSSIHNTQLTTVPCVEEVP
Chain of UniProt P19492 (whole entry, looked up): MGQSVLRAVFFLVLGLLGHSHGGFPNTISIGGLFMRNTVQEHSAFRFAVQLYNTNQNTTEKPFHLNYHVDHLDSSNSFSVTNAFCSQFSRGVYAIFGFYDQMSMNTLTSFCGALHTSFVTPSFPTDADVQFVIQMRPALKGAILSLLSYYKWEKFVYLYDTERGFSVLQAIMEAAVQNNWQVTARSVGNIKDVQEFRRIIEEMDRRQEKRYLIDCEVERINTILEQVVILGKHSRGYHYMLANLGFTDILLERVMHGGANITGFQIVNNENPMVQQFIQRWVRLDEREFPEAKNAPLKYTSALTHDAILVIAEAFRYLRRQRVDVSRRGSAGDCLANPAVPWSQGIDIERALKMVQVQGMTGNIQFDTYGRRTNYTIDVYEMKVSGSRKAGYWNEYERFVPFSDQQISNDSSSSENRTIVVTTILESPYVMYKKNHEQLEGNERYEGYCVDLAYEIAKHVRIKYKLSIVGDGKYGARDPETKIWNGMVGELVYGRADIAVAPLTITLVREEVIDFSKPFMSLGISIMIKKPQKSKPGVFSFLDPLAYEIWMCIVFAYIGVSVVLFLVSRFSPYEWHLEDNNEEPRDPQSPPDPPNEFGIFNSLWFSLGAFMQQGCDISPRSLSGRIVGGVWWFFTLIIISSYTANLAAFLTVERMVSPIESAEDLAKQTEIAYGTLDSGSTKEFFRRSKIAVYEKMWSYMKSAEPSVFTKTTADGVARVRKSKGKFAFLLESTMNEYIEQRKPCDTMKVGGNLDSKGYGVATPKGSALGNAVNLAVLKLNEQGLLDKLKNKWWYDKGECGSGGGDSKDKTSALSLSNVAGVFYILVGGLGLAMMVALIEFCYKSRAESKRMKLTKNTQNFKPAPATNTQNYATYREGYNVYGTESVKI
Chain of UniProt P49720 (whole entry, looked up): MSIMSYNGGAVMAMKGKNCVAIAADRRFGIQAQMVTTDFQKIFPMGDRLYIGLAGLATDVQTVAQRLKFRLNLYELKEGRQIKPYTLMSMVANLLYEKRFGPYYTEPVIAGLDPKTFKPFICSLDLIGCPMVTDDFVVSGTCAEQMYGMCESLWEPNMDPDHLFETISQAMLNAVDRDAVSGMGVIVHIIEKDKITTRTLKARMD
Chain of UniProt Q2FDS6 (whole entry, looked up): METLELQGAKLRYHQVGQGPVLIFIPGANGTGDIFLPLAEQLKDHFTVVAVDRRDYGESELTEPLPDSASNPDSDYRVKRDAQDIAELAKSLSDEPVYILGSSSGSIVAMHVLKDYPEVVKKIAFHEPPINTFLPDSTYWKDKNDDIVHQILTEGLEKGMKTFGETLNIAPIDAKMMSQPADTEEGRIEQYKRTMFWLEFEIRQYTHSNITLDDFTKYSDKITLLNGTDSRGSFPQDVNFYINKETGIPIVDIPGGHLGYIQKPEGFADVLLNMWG
Chain of UniProt P0A6M2 (whole entry, unmodified, looked up): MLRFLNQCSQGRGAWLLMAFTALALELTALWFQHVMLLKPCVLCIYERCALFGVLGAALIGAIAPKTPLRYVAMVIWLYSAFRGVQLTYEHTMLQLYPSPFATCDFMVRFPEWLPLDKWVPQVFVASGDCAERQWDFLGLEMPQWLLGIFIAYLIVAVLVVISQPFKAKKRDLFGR
Chain of UniProt Q2NL67 (whole entry, looked up): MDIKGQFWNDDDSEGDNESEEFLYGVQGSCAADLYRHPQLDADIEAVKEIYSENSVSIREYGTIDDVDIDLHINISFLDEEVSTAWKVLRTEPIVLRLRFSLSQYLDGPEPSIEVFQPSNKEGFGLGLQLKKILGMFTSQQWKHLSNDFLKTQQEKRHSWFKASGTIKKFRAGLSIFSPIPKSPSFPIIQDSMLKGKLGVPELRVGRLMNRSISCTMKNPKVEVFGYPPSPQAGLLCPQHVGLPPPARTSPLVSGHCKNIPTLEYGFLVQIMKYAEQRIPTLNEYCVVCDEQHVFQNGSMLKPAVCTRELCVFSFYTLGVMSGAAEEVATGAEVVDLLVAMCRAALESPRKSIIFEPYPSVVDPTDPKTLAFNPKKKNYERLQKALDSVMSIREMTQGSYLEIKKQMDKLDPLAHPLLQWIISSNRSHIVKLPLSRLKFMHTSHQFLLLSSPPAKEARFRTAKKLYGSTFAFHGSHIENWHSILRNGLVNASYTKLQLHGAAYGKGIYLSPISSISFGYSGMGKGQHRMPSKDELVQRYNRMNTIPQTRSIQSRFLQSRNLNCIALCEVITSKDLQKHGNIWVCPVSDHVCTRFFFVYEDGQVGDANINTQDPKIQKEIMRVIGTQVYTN
Chain of UniProt P61073 (whole entry, looked up): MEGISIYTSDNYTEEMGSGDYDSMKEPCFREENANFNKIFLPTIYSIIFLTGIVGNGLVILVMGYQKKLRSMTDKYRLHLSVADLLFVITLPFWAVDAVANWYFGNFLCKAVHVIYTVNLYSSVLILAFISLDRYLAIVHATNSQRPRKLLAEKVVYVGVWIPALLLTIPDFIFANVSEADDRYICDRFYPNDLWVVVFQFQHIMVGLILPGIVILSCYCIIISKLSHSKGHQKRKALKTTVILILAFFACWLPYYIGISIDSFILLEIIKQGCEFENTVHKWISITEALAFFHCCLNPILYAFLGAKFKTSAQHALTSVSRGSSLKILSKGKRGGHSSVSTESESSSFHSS

CCCCCCCCCCCCCCCCCC(=O)NC[C@H]1CC[C@H](C(=O)N[C@@H](CCC(=O)NCCCOCCOCCOCCCNC(=O)COCC(=O)N[C@@H](Cc2ccc(O)cc2)C(=O)NC(C)(Cc2ccccc2)C(=O)N[C@@H](CC(C)C)C(=O)N[C@@H](CCCC)C(=O)N[C@@H](CCCNC(=N)N)C(=O)N2CCC[C@H]2C(=O)N[C@@H](CCCNC(=N)NC)C(=O)N[C@@H](CC(N)=O)C(N)=O)C(=O)O)CC1 (some centres unmarked)
IC50 (Neuromedin-U receptor 2 (Mus musculus, UniProt Q8BZ39); ligand displacement, radioligand): 0.257 nM

C[n+]1ccn(C(=O)N2CCOCC2)c1
IC50 (Uncharacterized hydrolase SAUSA300_2518 (Staphylococcus aureus, UniProt Q2FDS6); enzyme activity, inhibitor): > 50000 nM

CC(C)C[C@@H]1NC(=O)[C@@H](CCCNC(=N)N)NC(=O)[C@@H]([C@H](C)O)NC(=O)[C@H](CCC(=O)O)NC(=O)[C@@H]2CCCN2C(=O)[C@H](CC(C)C)NC(=O)[C@@H]2CCCN2C(=O)[C@@H](CS)NC1=O
IC50 (blaNDM-1; enzyme activity, inhibitor, absorbance): 51100 nM

O=C(c1cc(Cc2n[nH]c(=O)c3ccccc23)ccc1F)N1CC(CNC2CC2)C1
IC50 (Protein mono-ADP-ribosyltransferase PARP6 (PARP6, Homo sapiens, UniProt Q2NL67); enzyme activity, inhibitor): > 10000 nM

COC(=O)Cc1cc2c(cc1C(=O)c1cccc(Br)c1)OCO2
IC50 (Gria2/Glutamate receptor 3 (Rattus norvegicus, UniProt P19491+P19492); ion current, antagonist, patch clamp): 5370 nM

N=C(N)NCCC[C@H](NC(=O)[C@H](CCCCNC(=O)c1cncc(OS(=O)(=O)F)c1)NS(=O)(=O)c1cccc(F)c1)C(=O)NC1CCC1
IC50 (SIRT5; inhibitor, fluorogenic; pre-incubation 4 h, added: NAD+ 500 µM): 36000 ± 5700 nM

O=C(NCc1cc(Br)cc(Br)c1OC(=O)c1ccccc1[N+](=O)[O-])c1ccccc1Cl
IC50 (lasR; reporter gene, antagonist; Escherichia coli, JLD271 with LasR plasmid; added: OdDHL 2 nM): no inhibition

CN(C)C(=O)[C@@H](NC(=O)c1cc(-c2ccnn2C)ccc1-c1ccc(C(F)(F)F)cc1)c1cccc(C(F)(F)F)c1
IC50 (NKG2-D type II integral membrane protein, with ULBP1 (KLRK1, Homo sapiens, UniProt P26718); ligand binding, inhibitor, cellular TR-FRET displacement; added: human ULBP1-AF647 at KD): 400 nM

COc1cc(C[C@H](C)[C@H](C)Cc2ccc3c(c2)OCO3)ccc1O
IC50 (Liver carboxylesterase 1 (CES1, Homo sapiens, UniProt P23141); enzyme activity, inhibitor): 750 nM

CC(C)(COP(=O)(O)OP(=O)(O)OC[C@H]1O[C@@H](n2cnc3c(N)ncnc32)[C@H](O)[C@@H]1OP(=O)(O)O)[C@@H](O)C(=O)NCCC(=O)NCCSCC(=O)N[C@@H](CO)C(=O)NCC(=O)N[C@@H](CCCNC(=N)N)C(=O)NCC(=O)N[C@@H](CCCCN)C(=O)NCCOCCOCC(=O)NCCCC[C@H](NC(=O)CC[C@@H]1NC(=O)[C@@H](CCCNC(=N)N)NC(=O)[C@H](CCCNC(=N)N)NC(=O)[C@@H](CCCNC(=N)N)NC(=O)[C@H](CCCNC(=N)N)NC(=O)[C@H](Cc2csc3ccccc23)NC(=O)[C@@H](Cc2ccccc2)NC(=O)[C@H](Cc2ccccc2)NC1=O)C(N)=O
IC50 (N-alpha-acetyltransferase 40 (NAA40, Homo sapiens, UniProt Q86UY6); enzyme activity, inhibitor, fluorescence): 130 nM

Cc1ccc2c(n1)c(-c1cccc(S(C)(=O)=O)c1)c(C)n2C/C(F)=C/CN
IC50 (Cytochrome P450 2C9 (CYP2C9, Homo sapiens, UniProt P11712); enzyme activity, inhibitor; human, liver microsomes): 190 nM

O=C(O)CCn1c(=O)oc2cc(Cl)c(Cl)cc21
IC50 (Aurora kinase B (AURKB, Homo sapiens, UniProt Q96GD4); inhibitor): > 31600 nM

O=C(NCCCC[C@H](NS(=O)(=O)c1cccc(F)c1)C(=O)N[C@@H](Cc1c[nH]c2ccccc12)C(=O)NC1CCC1)c1cncc(OS(=O)(=O)F)c1
IC50 (SIRT5; inhibitor, fluorogenic; 16 h preincubation, His-tagged enzyme 150 nM, added: NAD+ 500 µM): 16000 ± 8000 nM

COCCCNc1ccc(C(=O)C=C(O)C(F)(F)C(F)(F)F)cn1
IC50 (Formate-nitrite transporter; L-lactate transport, inhibitor, fluorescence assay in yeast; added: 1 mM L-lactate): 59 nM

C[C@H](NCc1ccc(-c2ccc(C(F)(F)F)cc2)cc1)C(N)=O
IC50 (Amine oxidase [flavin-containing] A (MAOA, Homo sapiens, UniProt P21397); enzyme activity, inhibitor, fluorescence): > 100000 nM

O=C(O)C1=C[C@H](O)[C@@H](NC(=O)c2ccc(-c3ccccc3)cc2)[C@H]([C@H](O)[C@H](O)CO)O1
IC50 (Sialidase-2 (Homo sapiens, UniProt Q9Y3R4); enzyme activity, inhibitor): 80000 nM

O=C(C=C(O)C(F)(F)C(F)(F)F)c1cccs1
IC50 (Formate-nitrite transporter; L-lactate transport, inhibitor, fluorescence; yeast; pH 6.8, added: L-lactate 1 mM): 61 ± 2 nM

CC[C@H](C)[C@H](NC(=O)[C@@H]1CCCN1C(=O)CNC(=O)[C@H](Cc1ccccc1)NC(=O)[C@@H]1CCCN1C(=O)[C@H](CC(=O)O)NC(=O)[C@H](Cc1ccccc1)NC(=O)[C@H](CCCNC(=N)N)NC(=O)[C@H](C)NC(=O)CNC(=O)[C@@H]1CCCN1C(=O)[C@@H]1CCCN1C(=O)[C@@H](NC(=O)[C@H](C)NC(=O)CNC(=O)[C@@H]1CCCN1C(=O)[C@@H]1CCCN1C(=O)[C@@H](N)CC(C)C)C(C)C)C(=O)NCC(=O)N[C@H](C(=O)O)[C@@H](C)O
IC50 (Proteasome subunit beta type-3/PSMB7 (Homo sapiens, UniProt P49720+Q99436); trypsin-like activity, inhibitor; human proteasome 10 nM; added: Boc-LRR-AMC): < 10000 nM

NCC[C@H]1NC(=O)[C@@H](CCC(N)=O)NC(=O)[C@H](CCC(=O)O)NC(=O)[C@@H]2CCCN2C(=O)[C@H](C(c2ccccc2)c2ccccc2)NC(=O)[C@@H]2CCCN2C(=O)[C@H]2CCCN2C(=O)[C@H](CCC(N)=O)NC1=O
IC50 (blaNDM-1; enzyme activity, inhibitor, absorbance): 173000 nM

Cc1nc(N2CCC(N(C)c3cc(C(=O)NCCN4CCCC4)cnn3)CC2)nc(C)c1CC(C)C
IC50 (Cytochrome P450 2C19 (CYP2C19, Homo sapiens, UniProt P33261); enzyme activity, inhibitor): > 30000 nM

CSCC[C@H](NC(=O)[C@@H](NC(=O)[C@H](Cc1c[nH]cn1)NC(=O)CNC(=O)[C@H](Cc1c[nH]cn1)NC(=O)[C@@H]1CCCN1C(=O)[C@H](C)N)C(C)C)C(=O)N[C@H](C(=O)N[C@@H](CCC(=O)O)C(=O)N[C@@H](CC(C)C)C(=O)O)C(C)C
IC50 (HLA class I histocompatibility antigen, A alpha chain, allele A*26:01 (Homo sapiens, UniProt P04439); peptide-MHC binding, radioligand competition binding): > 70000 nM

FC(F)(F)C(F)(F)c1nc(-c2cccnc2)n[nH]1
IC50 (Formate-nitrite transporter; L-lactate transport, inhibitor, fluorescence; yeast; pH 6.8, added: L-lactate 1 mM): 18800 ± 4590 nM

CC(C)C[C@@H](N)C(=O)NCC(=O)N[C@H](C)C(=O)N[C@H](CO)C(=O)N[C@H](Cc1c[nH]c2ccccc12)C(=O)N[C@H](Cc1c[nH]cn1)C(=O)N[C@H](CCCNC(=N)N)C(=O)N1CCC[C@@H]1C(=O)N[C@H](CC(=O)O)C(=O)N[C@H](CCCCN)C(=O)N[C@H](CCCCN)C(=O)N[C@H](CCCNC(=N)N)C(=O)NCCCCCC(=O)N[C@@H](CCCCN)C(=O)N[C@@H](CCCNC(=N)N)C(=O)N[C@@H](CCCCN)C(=O)N[C@@H](CCC(N)=O)C(=O)N[C@@H](CCCNC(=N)N)C(=O)NCC(=O)N1CCC[C@H]1C(=O)NCC(=O)N[C@@H](CCCNC(=N)N)C(=O)N[C@@H](C)C(=O)N[C@@H](Cc1ccccc1)C(N)=O
IC50 (C-X-C chemokine receptor type 4 (CXCR4, Homo sapiens, UniProt P61073); antagonist; concentration not given): 101 nM

N=C(N)NCCC[C@H](NC(=O)[C@H](CCCCNC(=O)c1cncc(OS(=O)(=O)F)c1)NC(=O)CCC[P+](c1ccccc1)(c1ccccc1)c1ccccc1)C(=O)NC1CCC1
IC50 (SIRT5; inhibitor, fluorogenic; 0 h preincubation, non-tagged enzyme 150 nM, added: NAD+ 500 µM): > 200000 nM

CCCC[C@@H]1NC(=O)[C@@H](CCCCN)NC(=O)[C@H]2CCCN2C(=O)[C@H](CCC(=O)O)NC(=O)[C@@H]2C[C@@H](O)CN2C(=O)[C@H](Cc2ccccc2CN)NC(=O)[C@@H]2CCCN2C(=O)[C@@H](CS)NC1=O
IC50 (blaNDM-1; enzyme activity, inhibitor, absorbance): 3140 nM

CSCC[C@H](NC(=O)[C@@H](N)CCCNC(=N)N)C(=O)N[C@@H](CO)C(=O)N[C@@H](C)C(=O)N1CCC[C@H]1C(=O)N[C@@H](CO)C(=O)N[C@H](C(=O)NCC(=O)NCC(=O)N[C@H](C(=O)O)C(C)C)[C@@H](C)O
IC50 (HLA class I histocompatibility antigen, A alpha chain, allele A*02:07 (Homo sapiens, UniProt P04439); binding): 25600 nM

CCOc1c(Cl)cnn(-c2ccccc2)c1=O
IC50 (Disulfide bond formation protein B (Escherichia coli, UniProt P0A6M2, C49V/C8A); enzyme activity, inhibitor): 5620 to 7910 nM

O=C(C=C(O)C(F)(F)C(F)(F)C(F)(F)F)c1cccnc1
IC50 (Formate-nitrite transporter; L-lactate transport, inhibitor, fluorescence; yeast; pH 6.8, added: L-lactate 1 mM): 118 ± 28 nM

N[C@H](C(=O)N1CCCC1)C1CCN(c2nccc3c(-c4ncc(Cl)cc4Cl)cccc23)CC1
IC50 (Protein-arginine deiminase type-2 (PADI2, Homo sapiens, UniProt Q9Y2J8); inhibitor, GDH-coupled; added: Ca2+ 0.25 mM): 28.5 nM

CC1(C)CC=C(c2ccccc2)c2cc(/C=C/c3ccc(C(=O)O)cc3)ccc21
IC50 (Retinoic acid receptor alpha (RARA, Homo sapiens, UniProt P10276)): 7.5 nM

CC(C)C[C@H](NC(=O)[C@H](Cc1ccc(CN)cc1)NC(=O)[C@H](Cc1ccccc1)N=[N+]=[N-])C(=O)N[C@H](C(=O)[C@@]1(C)CO1)C1CCCCC1
IC50 (Proteasome subunit beta type-7 (PSMB7, Homo sapiens, UniProt Q99436); inhibitor, competitive ABPP; Raji cell lysate; constitutive proteasome β2c): 4240 nM

Nc1ccc(C(=O)C=C(O)C(F)(F)C(F)(F)F)cn1
IC50 (Formate-nitrite transporter; L-lactate transport, inhibitor, fluorescence; yeast; pH 6.8, added: L-lactate 1 mM): 25 ± 3 nM

O=C(N[C@@H]1c2ccccc2C[C@H]1N1CCCC1)c1ccc(-c2ccnc3[nH]ccc23)nc1
IC50 (cAMP-dependent protein kinase catalytic subunit beta (PRKACB, Homo sapiens, UniProt P22694); enzyme activity, inhibitor): 0.8 nM

CC[C@H](C)[C@@H]1NC(=O)[C@@H]2CCCN2C(=O)[C@@H](CS)NC(=O)[C@H](CC(C)C)NC(=O)[C@@H](CCCNC(=N)N)NC(=O)[C@@H](CCCNC(=N)N)NC(=O)[C@H](CCC(=O)O)NC(=O)[C@@H]2CCCN2C1=O
IC50 (blaNDM-1; enzyme activity, inhibitor, absorbance): 1150 nM

CCCCCC(=O)CC(=O)N[C@H]1CCOC1=O
IC50 (lasR; reporter gene, antagonist; Escherichia coli, JLD271 with LasR plasmid; added: OdDHL 2 nM): 140 nM

CNC(=S)NCCCC[C@H](NC(=O)CCc1ccccc1)C(=O)N[C@@H](CCCNC(=N)N)C(=O)N[C@@H](CC1CCCCC1)C(=O)N[C@H](CCCCN)C(=O)N[C@@H](CC1CCCCC1)C(=O)N[C@H](CCCNC(=N)N)C(=O)N[C@@H](CC1CCCCC1)C(N)=O
IC50 (NAD-dependent protein deacetylase sirtuin-2 (SIRT2, Homo sapiens, UniProt Q8IXJ6); enzyme activity, inhibitor, fluorescence): 1080 nM

CCN(CC)c1ccc(C(=O)C=C(O)C(F)(F)C(F)(F)F)cn1
IC50 (Formate-nitrite transporter; L-lactate transport, inhibitor, fluorescence; yeast; pH 6.8, added: L-lactate 1 mM): 228 ± 18 nM

CC(C)C[C@H](NC(=O)[C@H]1O[C@@H]1C(=O)O)C(=O)NCCCCN=C(N)N
IC50 (Cathepsin S (CTSS, Homo sapiens, UniProt P25774); enzyme activity, inhibitor): 3.86 nM

Some of these lines once more:
CCCCCCCCCCCCCCCCCC(=O)NC[C@H]1CC[C@H](C(=O)N[C@@H](CCC(=O)NCCCOCCOCCOCCCNC(=O)COCC(=O)N[C@@H](Cc2ccc(O)cc2)C(=O)NC(C)(Cc2ccccc2)C(=O)N[C@@H](CC(C)C)C(=O)N[C@@H](CCCC)C(=O)N[C@@H](CCCNC(=N)N)C(=O)N2CCC[C@H]2C(=O)N[C@@H](CCCNC(=N)NC)C(=O)N[C@@H](CC(N)=O)C(N)=O)C(=O)O)CC1 (some centres unmarked)
IC50 (Neuromedin-U receptor 2 (Mus musculus, UniProt Q8BZ39); ligand displacement, radioligand): 0.257 nM

CC(C)C[C@@H]1NC(=O)[C@@H](CCCNC(=N)N)NC(=O)[C@@H]([C@H](C)O)NC(=O)[C@H](CCC(=O)O)NC(=O)[C@@H]2CCCN2C(=O)[C@H](CC(C)C)NC(=O)[C@@H]2CCCN2C(=O)[C@@H](CS)NC1=O
IC50 (blaNDM-1; enzyme activity, inhibitor, absorbance): 51100 nM
